Published values of several laboratories.
“And” joins repeats or separate records; there may be more than shown. Numbers after ± are the reported error.

CC(C)(C)c1ccc(C(O)CCCN2CCC(C(O)(c3ccccc3)c3ccccc3)CC2)cc1 (centres unmarked)  heart rate (male Hartley guinea pigs, anaesthetized; intravenous, 0.3 mg/kg group, baseline before infusion): 218 ± 0.2 beats/min
COc1cc(/C=C/C(=O)O)ccc1O  CSF concentration (human CSF; concentration not given, mean): not detected
O=C(O)CCC(=O)O.[2H]C([2H])([2H])Oc1cc(C)c2[nH]ccc2c1CN1CC[C@@H](C2CC2)C[C@H]1c1ccc(C(=O)O)cc1  subjects with TEAE Acne (multiple ascending dose; healthy Chinese subjects; 50 mg twice daily): 0%
CCc1c(-c2ccccc2)c(-c2ccccc2)nn1-c1ccccc1-c1cccc(OCC(=O)O)c1  AUMC(0-inf) observed (Sprague-Dawley rat; oral, dose not given): 17600 h²·ng/mL and 13700 h²·ng/mL and 17400 h²·ng/mL
COc1cc2c(cc1OC)C(=O)C(CC1CCN(Cc3ccccc3)CC1)C2 (centres unmarked)  FVC (spirometry; human subjects; relative to: placebo): 0.00389 L
CC/C(=C(\c1ccccc1)c1ccc(OCCN(C)C)cc1)c1ccccc1  heart rate (male Hartley guinea pigs, anaesthetized; intravenous, 10 mg/kg group, baseline before infusion): 217 ± 0.9 beats/min
CCCCCCC#Cc1cncc(-c2nnc(SCc3ccc(Cl)c(F)c3)n2C)c1  CC50 (African green monkey cells; 72 h): > 125 µM
CNC(=O)c1cc(Oc2ccc(NC(=O)Nc3ccc(Cl)c(C(F)(F)F)c3)cc2)ccn1  TBIL (NOD-SCID mouse, serum; ip, 30 mg/kg): 0.73 ± 0.32 mg/dL
CS(=O)(=O)c1ccc([C@@H](O)[C@@H](CF)NC(=O)C(Cl)Cl)cc1  MRT(0-inf) (chicken (Arbor Acres), plasma; oral, 20 mg/kg, together with: quercetin 20 mg/kg pretreatment): 3.87 ± 0.57 h
O=C(N[C@H](Cc1c[nH]c2ccccc12)C(=O)Nc1ccncc1)c1ccc(-c2ccc(F)c(Cl)c2)cc1F  concentration (Swiss Webster mouse, female, lung; oral, 50 mg/kg, 8 h, 20% HPβCD vehicle): 15.5 µM
C=CC(=O)Nc1cc(Nc2nccc(-c3cn(C)c4ccccc34)n2)c(OC)cc1N(C)CCN(C)C  recovery (storage stability; human dried blood spot; 2 h, -80 °C, LQC level): 98.1%
C=CC(=O)N1CCC([C@@H]2CCNc3c(C(N)=O)c(-c4ccc(Oc5ccccc5)cc4)nn32)CC1  MRT(0-t) (Sprague-Dawley rats, plasma; oral, 16 mg/kg, together with: posaconazole 40 mg/kg): 5.56 ± 1.13 h
Cn1cnc2c(F)c(Nc3ccc(Br)cc3Cl)c(C(=O)NOCCO)cc21  peripheral volume of distribution (human, plasma; oral, dose not given, sequential zero-first-order absorption): 70.4 L
CCOc1c([C@H](C)n2nc(C)c3c(N)ncnc32)cc(Cl)c(F)c1[C@@H]1CNC(=O)C1  half-life (patients, monotherapy; oral, 5 mg once daily, cycle 1 day 15): 11.4 h
O=C(Nc1nc2cccc(-c3ccc(CN4CCS(=O)(=O)CC4)cc3)n2n1)C1CC1  treatment-emergent adverse events (measured: asthenia; human rheumatoid arthritis patients; oral, 300 mg once daily, 4 weeks, regardless of relatedness): 5%
COc1ncc(-c2nc3c(n2C(C)C)[C@H](c2ccc(Cl)cc2)N(c2cc(Cl)cn(C)c2=O)C3=O)c(OC)n1  AUC(0-last) (LC-MS/MS; human, plasma; oral, 1 mg, cycle 1 day 1, low-dose arm): 134 ng·h/mL
C[C@@H](N)C1CCN(S(=O)(=O)c2cccc3cnccc23)CC1  treatment-related TEAEs (healthy volunteers; 150 mg single dose, fed): 30%
C[C@H]1CN(C(=O)CC#N)[C@]12CCN(c1ncnc3[nH]ccc13)C2  subjects with Arthralgia (healthy human; oral, 12 mg single): 0%
COc1cccc(OC)c1-c1cc(C(=O)NC2(C(=O)O)C3CC4CC(C3)CC2C4)nn1-c1ccc(C(=O)N(C)CCCN(C)CCCN(C)C(=O)CN2CCN(CC(=O)[O-])CCN(CC(=O)[O-])CCN(CC(=O)[O-])CC2)cc1C(C)C.[177Lu+3] (centres unmarked)  tumour-to-stomach ratio (mouse HT-29 xenograft; 168 h, biodistribution; relative to: tumour over stomach): 29.6
Nc1ncn([C@H]2C[C@H](O)[C@@H](CO)O2)c(=O)n1  mean deviation from nominal (processed mouse plasma; 40 ng/mL, 24 h, 4 °C, re-injection stability): 3.77%
COc1ccc([C@@H](O)c2cc(-c3ncnc4cc(N5CCOCC5)ccc34)c(F)cc2Cl)nn1  drug-related adverse events, general disorders (locally advanced rectal cancer; all dose levels overall, together with: capecitabine and radiotherapy): 47%
Cc1ccc(Sc2ccccc2N2CCNCC2)c(C)c1  participants with TEAE (measured: protein in urine; healthy adult women; oral, 5 mg daily, 12 days): 0%
[18F]c1ccc(-c2ccc3c(c2)[nH]c2ccncc23)cn1  uptake (ex vivo biodistribution; APP/PS1 Alzheimer mice, adipose; intravenous, 30 min): 0.206 ± 0.069 SUV
O=C1c2ccncc2C(=O)c2c1[nH]c1ccccc21  tissue concentration (Sprague-Dawley rat, male, right ventricle; oral, 1 mg/kg, 24 h): 0.047 ± 0.02 nmol/mg
OC[C@H](Cc1cccc(O)c1)[C@H](CO)Cc1cccc(O)c1  CSF concentration (human CSF; concentration not given, mean): not detected
C[C@@H](Nc1cc(F)cc(F)c1)c1cc(C(=O)N(C)C)cc2c(=O)cc(N3CCOCC3)oc12  AUC(tau) (human; oral, 120 mg twice daily, dose-expansion cohort, geometric LSM, together with: abiraterone 1000 mg): 4410 ng·h/mL
C=CC(=O)N(C)CCOc1c(N)ncnc1-c1cc(F)cc(NC(=O)c2ccc(C3CC3)cc2F)c1C  AUC (human, plasma; oral, 30 mg single dose): 75.1 ng·h/mL
Cc1cc2sc(N)nc2c2cccnc12  AUMC(0-inf) (female BALB/c mice, plasma; i.p., 30 mg/kg, observed): 223000 h²·ng/mL
CN(C(=O)n1cnc(-c2ccc[n+]([O-])c2)c1)[C@H]1CC[C@H](O)CC1  tissue concentration (rat, cerebellum; oral, 10 mg/kg daily for 5 days, 48 h): 8.3 ± 0.2 ng/g
Cc1cc(NC2CCN(C(=O)OC3CCN(C(=O)/C=C/CN(C)C)C3)CC2)n2ncc(C(C)C)c2n1 (centres unmarked)  patients with adverse event (Phase I dose escalation CTCAE v4.0, measured: peripheral oedema; patients with advanced solid tumours; dose not given, Total dosing any grade): 11%
NC[C@@]1(CC(=O)O)[C@@H]2CC[C@H]3C[C@@H]2[C@@H]1C3  unbound AUC(0-t) increase (human, moderate renal impairment, plasma; dose not given; relative to: normal renal function): 122%
C[C@@H]1CN(CC(=O)N2CC(C)(C)c3nc(CO)c(Cc4ccc(F)cc4)cc32)[C@@H](CN2CCOC[C@H]2C)CN1  oral bioavailability (male cynomolgus monkey; oral, 30 mg/kg): 28 ± 8.6%
C=CCN1CC(=O)N2[C@@H](Cc3ccc(O)cc3F)C(=O)N(Cc3cccc(N4CC(N5CCN(CC)CC5)C4)n3)C[C@@H]2N1C(=O)NCc1ccccc1  treatment-related decreased appetite (advanced solid tumour patients; oral, 80 mg twice daily, grade ≥3, dose-escalation): 0%
CCN1/C(=C/C(C)=O)Sc2ccc(F)cc21  diastolic blood pressure change (cynomolgus monkey; oral, 30 mg/kg, 0.5 h post-dose; relative to: pre-dose): 99 ± 5.4%
CCc1cc(C(=O)NC)c2nccc(N3CCc4c(cc(Cn5ccnc5)cc4-c4cn(C)nc4C(F)(F)F)C3=O)c2c1  serum TBIL level (Sprague Dawley rats; oral, 50 mg/kg once daily, 7 days): 2.4 ± 0.37 µmol/L
C[C@@H]1CCO[C@H]2Cn3cc(C(=O)NCc4ccc(F)cc4F)c(=O)c(O)c3C(=O)N12  plasma concentration (population PK, post-hoc; children, 10 to <14 kg, plasma; oral, 20 mg dispersible tablet, 24 h, steady state, geometric mean): 892 ng/mL
Cc1ccc([C@@H]2O[C@H](CO)[C@@H](O)[C@H](O)[C@H]2O)cc1Cc1ccc(-c2ccc(F)cc2)s1  urinary phosphate excretion change (measured: inorganic phosphorus; Japanese type 2 diabetes patients; 400 mg, day 5, 24 h urine collection; relative to: baseline): 167 mg
O=c1c(O)c(-c2ccc(O)cc2)oc2cc(O)cc(O)c12  CSF concentration (human CSF; concentration not given, mean): not detected
Oc1ccc(/C=C/c2cc(O)cc(O)c2)cc1  potassium (rat, azoxymethane-injected, blood at sacrifice; 10 mg/kg): 3.6 mEq/L and 3.7 mEq/L
CCCCC[C@H](O)CC[C@@H]1[C@H]2Cc3cccc(OCC(=O)O)c3C[C@H]2C[C@H]1O  geometric mean Cmax (LC-MS/MS; female Japanese PAH patients, plasma; inhaled, 54 µg): 1.03 ng/mL
O=C(COc1ccc(Cl)cc1)NC12CC(c3nnc([C@H]4C[C@@H](OC(F)(F)F)C4)o3)(C1)C2  post lumbar puncture syndrome (humans, MAD; oral, 45 mg once daily, 14 days): 16.7%
CO[C@H]1C[C@@H]2CC[C@@H](C)[C@@](O)(O2)C(=O)C(=O)N2CCCC[C@H]2C(=O)O[C@H]([C@H](C)C[C@@H]2CC[C@@H](OC(=O)NCCOCCOCCOCCOCCOCCOCCOCCOCCC(=O)N3CCc4cc(Cn5nc(-c6ccc7oc(N)nc7c6)c6c(N)ncnc65)ccc4C3)[C@H](OC)C2)C[C@@H](O)[C@H](C)/C=C(\C)[C@@H](O)[C@@H](OC)C(=O)[C@H](C)C[C@H](C)/C=C/C=C/C=C/1C  AUClast ratio (human, plasma; intravenous, 12 mg, cycle 1; relative to: day 15 over day 1): 1.9
O=C(Nc1cnccc1Cl)N1CCN(Cc2ccc3c(c2)OC(F)(F)O3)CC1  volunteers with adverse event (measured: Dizziness; healthy elderly humans; 100 mg once daily, 10 days): 0%
COc1ccc2c(=O)n(C)c(-c3ccccc3)nc2c1  tissue/plasma ratio (Sprague-Dawley rat, male, skeletal muscle/plasma; oral, 30 mg/kg, 2 h; relative to: skeletal muscle over plasma): 0.44
O=C(OC(C(F)(F)F)C(F)(F)F)N1CCN(Cc2cccc(Oc3ccccc3)c2)CC1  k2 (PET blocking study; rhesus monkey, brain THA; 0.3 mg/kg, compound pretreatment, together with: [18F]T-401 tracer): 0.511 min⁻¹
O=C(NCc1ccc(CN2CCOCC2)cc1)c1csc2nc[nH]c(=O)c12  EC50 (haemolysis; human red blood cells; 1 h, 37 °C): > 100 µM
CCCCc1oc2ccccc2c1C(=O)c1cc(I)c(OCCN(CC)CC)c(I)c1  heart rate (male Hartley guinea pigs, anaesthetized; intravenous, 20 mg/kg over 10 min, after infusion): 179 ± 0.6 beats/min
NC(=O)c1cnc2[nH]ccc2c1N[C@@H]1[C@@H]2CC3C[C@H]1C[C@@](O)(C3)C2  peripheral volume (healthy human volunteers, plasma; oral, dose not given, population PK model estimate): 124 L
O=C(CCCN1CC=C(n2c(=O)[nH]c3ccccc32)CC1)c1ccc(F)cc1  heart rate (male Hartley guinea pigs, anaesthetized; intravenous, 0.03 mg/kg over 10 min, after infusion): 247 ± 0.9 beats/min
Cc1ccc(C(=O)N(CCCN)C(c2nc3snc(C)c3c(=O)n2Cc2ccccc2)C(C)C)cc1 (centres unmarked)  patients with adverse event (hypophosphataemia grade ≥3 (CTCAE); human patients; intravenous, 2 mg/day): 0%
O=C(CCCCCCC(=O)Nc1ccc(CC[18F])cc1)NO  tissue uptake (athymic nu/nu male mice, LNCaP xenograft, lungs; intravenous, 0.5 h): 3.5 ± 0.5 %ID/g
CN(C(=O)n1cnc(-c2cccnc2)c1)[C@H]1CC[C@H](O)CC1  concentration (Wistar rat, pons; oral, 10 mg/kg of BIA 10-2474, 1 h, single dose): 15 ± 0.5 ng/g
COc1ccnc(C(=O)NC(CO)C(=O)O)c1O (racemic)  DT50 whole system (Swiss Lake sand sediment, aerobic dark; 20 °C): 53.7 days
O=C1NCCc2nc(OCc3cccc(F)c3)ccc21  leg weakness score (modified Irwin test; Sprague-Dawley rat, male; oral, 100 mg/kg, 1 h; higher = stronger effect): 0
N#Cc1ccc2c(c1)[C@H]1CCCN(C(=O)c3ccc4[nH]cnc4c3)[C@H]1C2  DHEA-S level (human, male; 160 mg, day 7): 8.2 µmol/L
NC1(C(=O)N[C@@H](CCO)c2ccc(Cl)cc2)CCN(c2nc[nH]c3nccc2-3)CC1  incidence of Pyrexia (metastatic CRPC patients; dose not given, any grade, treatment-related, all doses, together with: enzalutamide 160 mg daily): 6.7%

Repeated from above:
Cc1cc(NC2CCN(C(=O)OC3CCN(C(=O)/C=C/CN(C)C)C3)CC2)n2ncc(C(C)C)c2n1 (centres unmarked)  patients with adverse event (Phase I dose escalation CTCAE v4.0, measured: peripheral oedema; patients with advanced solid tumours; dose not given, Total dosing any grade): 11%
NC[C@@]1(CC(=O)O)[C@@H]2CC[C@H]3C[C@@H]2[C@@H]1C3  unbound AUC(0-t) increase (human, moderate renal impairment, plasma; dose not given; relative to: normal renal function): 122%
C[C@@H]1CN(CC(=O)N2CC(C)(C)c3nc(CO)c(Cc4ccc(F)cc4)cc32)[C@@H](CN2CCOC[C@H]2C)CN1  oral bioavailability (male cynomolgus monkey; oral, 30 mg/kg): 28 ± 8.6%
C=CCN1CC(=O)N2[C@@H](Cc3ccc(O)cc3F)C(=O)N(Cc3cccc(N4CC(N5CCN(CC)CC5)C4)n3)C[C@@H]2N1C(=O)NCc1ccccc1  treatment-related decreased appetite (advanced solid tumour patients; oral, 80 mg twice daily, grade ≥3, dose-escalation): 0%
CCN1/C(=C/C(C)=O)Sc2ccc(F)cc21  diastolic blood pressure change (cynomolgus monkey; oral, 30 mg/kg, 0.5 h post-dose; relative to: pre-dose): 99 ± 5.4%
CCc1cc(C(=O)NC)c2nccc(N3CCc4c(cc(Cn5ccnc5)cc4-c4cn(C)nc4C(F)(F)F)C3=O)c2c1  serum TBIL level (Sprague Dawley rats; oral, 50 mg/kg once daily, 7 days): 2.4 ± 0.37 µmol/L
C[C@@H]1CCO[C@H]2Cn3cc(C(=O)NCc4ccc(F)cc4F)c(=O)c(O)c3C(=O)N12  plasma concentration (population PK, post-hoc; children, 10 to <14 kg, plasma; oral, 20 mg dispersible tablet, 24 h, steady state, geometric mean): 892 ng/mL
Cc1ccc([C@@H]2O[C@H](CO)[C@@H](O)[C@H](O)[C@H]2O)cc1Cc1ccc(-c2ccc(F)cc2)s1  urinary phosphate excretion change (measured: inorganic phosphorus; Japanese type 2 diabetes patients; 400 mg, day 5, 24 h urine collection; relative to: baseline): 167 mg
